Assay results of several laboratories.
Lines come from different studies, so protocols differ.

O=C(Cn1cc(Cn2cc3c4cc(Br)ccc4nc-3c3cc(F)ccc32)nn1)N1CCCCC1 gave a selectivity index of 2 (Giardia duodenalis; reference: Caco-2 CC50 over Giardia IC50).
For COC(=O)C(C)NC(=O)C1OC(OC2C(OC3CCC4(C)C(CCC5(C)C4C(=O)C=C4C6CC(C)(C(=O)O)CCC6(C)CCC45C)C3(C)C)OC(C(=O)NC(C)C(=O)OC)C(O)C2O)C(O)C(O)C1O (stereo not drawn), the therapeutic index was 67 (Epstein-Barr virus; superinfected Raji cells; reference: CC50 over EC50).
The growth-inhibitory concentration of O=C1C=C(Br)/C(=C/Br)O1 is reported as ≥ 20 µM (Escherichia coli; OD600; JLD271 LasR reporter).
Fc1ccc2c(c1)c1nc3ccc(Br)cc3c-1cn2Cc1cn(Cc2ccc(Cl)cc2)nn1 has a selectivity index of 4.8 (Giardia duodenalis; reference: Caco-2 CC50 over Giardia IC50).
COC(=O)C(CCC(=O)O)NC(=O)C1OC(OC2C(OC3CCC4(C)C(CCC5(C)C4C(=O)C=C4C6CC(C)(C(=O)O)CCC6(C)CCC45C)C3(C)C)OC(C(=O)NC(CCC(=O)O)C(=O)OC)C(O)C2O)C(O)C(O)C1O (stereo not drawn) has a therapeutic index of 30 (Epstein-Barr virus; superinfected Raji cells; reference: CC50 over EC50).
CC12CC(O)C3CC1(OC1OC(CO)C(O)C(O)C1O)C3(COC(=O)c1ccccc1)C(=O)O2 (stereo not drawn) has a conversion of 45.4% (Enterococcus faecalis; rat gut microbiota; 12 h, anaerobic, SD rat microbiota 100%).
COc1ccc(Cn2cc(Cn3cc4c5cc(Br)ccc5nc-4c4cc(F)ccc43)nn2)cc1 gave a selectivity index of 7.4 (Giardia duodenalis; reference: Caco-2 CC50 over Giardia IC50).
For COc1ccc(CNc2nc(N3CCC[C@H]3CO)ncc2C(=O)NN)cc1Cl, toxicity read “toxic” (Salmonella typhimurium; Ames test; TA98, TA100, TA1535, TA102, TA97a; 5000, 2500, 1600 µg/plate, preliminary test).
c1ccc(CN2CCOCCOCCN(CCCCCCCCCCCCCCN3CCOCCOCCN(CCCCCCCCCCCCCCN4CCOCCOCCN(Cc5ccccc5)CCOCCOCC4)CCOCCOCC3)CCOCCOCC2)cc1 — result for membrane permeability: “increased” (Escherichia coli; propidium iodide uptake; tetracycline-resistant; 1/2 MIC).
